Assay results of several laboratories.
Parts stem from different laboratories: compare values within a part only. Substitutions count along the parent as printed.

Block 1 — technique: protein-binding microarray; form: double-stranded DNA, one strand shown; matrix: in vitro; concentration: 250 nM; setting: 60-bp whole probe; added: salmon DNA 0.4 mg/ml; relative to: random background probes; direction: higher = stronger binding; constant ends, left off below: GCCTAGCAC … GTCTTGATTCGCTTGACGCTGCTG
Target: Interferon regulatory factor 7, full length, phosphomimetic (IRF7, Homo sapiens, UniProt Q92985, residues 1-503, S101K/S471D/S472D/S475D/S476D/S477D/S483D/S484D/S487D)
Residues (chain): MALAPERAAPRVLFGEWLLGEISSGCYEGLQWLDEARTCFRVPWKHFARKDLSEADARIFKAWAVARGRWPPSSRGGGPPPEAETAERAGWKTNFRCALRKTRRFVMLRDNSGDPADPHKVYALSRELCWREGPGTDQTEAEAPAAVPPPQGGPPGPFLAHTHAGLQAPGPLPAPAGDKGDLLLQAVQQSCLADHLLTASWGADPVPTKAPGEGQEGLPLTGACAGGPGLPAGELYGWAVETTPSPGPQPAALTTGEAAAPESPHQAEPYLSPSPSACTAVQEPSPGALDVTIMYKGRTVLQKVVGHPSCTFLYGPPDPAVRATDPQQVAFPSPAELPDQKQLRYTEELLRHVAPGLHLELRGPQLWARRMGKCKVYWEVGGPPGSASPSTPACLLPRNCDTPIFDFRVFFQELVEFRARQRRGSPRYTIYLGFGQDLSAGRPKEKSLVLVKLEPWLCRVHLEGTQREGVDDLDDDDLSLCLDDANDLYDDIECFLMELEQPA
Sequence | log fluorescence
CTAGGTCTCGGTTTCGGTTAGTGCTAG | 11.4 z-score
GACGGTTTCGGTCTCGAGACGTGCTAG | 7.84 z-score
GACGGACTGGGTTTCGGGCCGTGCTAG | 0.595 z-score
TGCTCTTTCTACATAGATGTGTGCTAG | 0.798 z-score
GACGAACTGAGTATCAAGACGTGCTAG | -0.281 z-score
TTAGATCTCAGTATTGATTAGTGCTAG | 0.354 z-score
TTAGGACTGCGACTGCTTTAGTGCTAG | -0.154 z-score
GACGGTTACGACACTGGGGACGTGCTA | -0.279 z-score
TTAGGTCTCCGTTTCGGTTAGTGCTAG | 4.41 z-score
GACGGACTGGGGACTGGGGTCGTGCTA | -0.583 z-score
AAACTAGTGTTTTTCTCCTAGTGCTAG | -0.202 z-score

Block 2 — technique: protein binding microarray; form: double-stranded DNA, one strand shown; matrix: in vitro; concentration: not given; relative to: not given; direction: higher = stronger binding
Target: Histone acetyltransferase KAT6A, winged helix 1, GST fusion (KAT6A, Homo sapiens, UniProt Q92794, residues 1-85)
Setting: 8-mer, flanks averaged, mean of 2 arrays, mostly near background
Construct (chain): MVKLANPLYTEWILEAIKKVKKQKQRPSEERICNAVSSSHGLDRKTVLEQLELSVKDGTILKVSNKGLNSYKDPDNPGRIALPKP
Sequence | E-score
ATGCTGGG | -0.111
CCTTATCC | -0.0826
CTCCCCAA | -0.144
CTCAGAAC | -0.00696
CCAGCGCA | 0.179
GACACGAC | -0.023
CCCTTAGG | -0.203
ATGATGCG | 0.192
CCCATGGG | -0.295
GGAATTAC | 0.0716
AGCGTAAC | 0.163
AAAACGAC | -0.0173
GATATGTA | -2.5e-05
GTTTTAGA | -0.148

Block 3 — technique: DHFR PCA, deep sequencing; matrix: yeast; added: (+)-ABA 0.39 µM; relative to: wild-type fitted maximum; direction: higher = stronger binding
Target: ABI1, truncated, D143A, DHFR fusion (Arabidopsis thaliana)
Setting: methotrexate growth selection, single substitutions
Starting sequence: PYL1, truncated, DHFR fusion (Arabidopsis thaliana); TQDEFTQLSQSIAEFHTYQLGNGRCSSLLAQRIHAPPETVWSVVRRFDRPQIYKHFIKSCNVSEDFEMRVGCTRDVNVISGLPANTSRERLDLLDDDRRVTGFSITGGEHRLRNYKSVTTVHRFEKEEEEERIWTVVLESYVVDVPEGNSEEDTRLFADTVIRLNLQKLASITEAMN
Change | relative binding score [%]
V143I | -4.8
V136A | 1.09
E130R | 42.8
Q51M | 1.84
T119I | -9.64
E152Y | 12.6
A158E | -5.59
E152H | 23.1
G108A | 2.31

Block 4 — technique: universal PBM; form: double-stranded DNA, one strand shown; matrix: in vitro; concentration: not given; direction: higher = stronger binding
Target: Sal-like protein 4, full length isoform B (SALL4, Homo sapiens, UniProt Q9UJQ4-2, residues 1-616)
Setting: 8-mer, flanks averaged, mean of replicates
Sequence | E-score
AATGTAAC | 0.195
ACCTCCGA | -0.0646
CTTTAGCA | -0.0335
ACACACAT | 0.218
AAGCATGC | 0.0288
ACATCCGT | 0.0086
ATGGCATC | 0.0471
AGCGTCTC | -0.242
CTCAAATC | -0.0241
CGCTGAAG | -0.191
ACGCACGT | -0.0315
CACCTCCA | 0.0147
ACACCAGT | -0.196
GATGAAAA | 0.183
CTCGCGCA | -0.067
ATCCGGCC | -0.259
GGACCCGA | -0.223

Block 5 — technique: aptamer microarray, sandwich; form: DNA with 2'F-ANA; matrix: in vitro; concentration: 200 nM; added: Cy3 exosite-II aptamer, 400 nM; direction: higher = stronger binding; sequence: GGTTGGTGTGGTTGG
Target: Prothrombin, mature alpha-thrombin (F2, Homo sapiens, UniProt P00734)
Setting: whole 15-mer aptamer, many near background
Modification | mean fluorescence intensity [a.u.]
2'F-ANA at 2 4 8 9 10 11 14 15 | 59.6
2'F-ANA at 2 3 4 7 8 9 11 12 13 | 616
2'F-ANA at 3 6 8 10 11 14 15 | 297
2'F-ANA at 1 2 4 5 9 10 13 14 | 44
2'F-ANA at 1 3 4 7 9 10 11 12 14 | 53.3
2'F-ANA at 3 7 11 14 15 | 648
2'F-ANA at 1 2 6 9 11 14 15 | 56.1
2'F-ANA at 1 3 4 5 7 8 15 | 138
2'F-ANA at 1 4 5 7 8 10 11 12 | 47.8
2'F-ANA at 2 3 4 9 10 12 | 345
2'F-ANA at 1 4 5 7 9 11 12 13 15 | 61.6
2'F-ANA at 1 4 8 10 14 | 48.4
2'F-ANA at 1 5 6 7 9 11 12 14 | 43.8
2'F-ANA at 1 2 4 6 7 8 11 13 14 | 52.7
2'F-ANA at 1 2 4 8 9 10 11 15 | 53.6
2'F-ANA at 2 3 5 6 8 10 12 13 | 62.3
2'F-ANA at 1 3 9 11 15 | 244
2'F-ANA at 1 4 5 7 10 11 12 14 | 51.2
2'F-ANA at 2 4 5 7 9 10 11 13 14 15 | 46.3
2'F-ANA at 2 3 5 6 7 8 10 11 13 | 62.9
2'F-ANA at 1 2 5 6 9 10 11 14 | 66.9
2'F-ANA at 1 2 5 8 9 13 15 | 49.3
2'F-ANA at 2 3 4 5 8 9 10 11 13 | 57.2

For quick reference, copied from above (block 2):
Sequence | E-score
ATGCTGGG | -0.111
GTTTTAGA | -0.148
CCCTTAGG | -0.203
AGCGTAAC | 0.163
CCAGCGCA | 0.179
GGAATTAC | 0.0716
ATGATGCG | 0.192
CTCAGAAC | -0.00696
CCCATGGG | -0.295
AAAACGAC | -0.0173
